Experimental data of several laboratories.
Compare with care: the assays were run in different laboratories.

SMILES | assay | test system | conditions | how to read | quantity | result
CCN(Cc1nc2c(N)nc3cc(-c4cc[nH]n4)ccc3c2[nH]1)C(C)=O | RECIST v1.1 | advanced solid tumour patients | dose not given, monotherapy arm | – | objective response rate | 5%
COc1c(OCCCN2CCOCC2)ccc2c1N=C(NC(=O)c1cnc(N)nc1)N1CCN=C21 | – | relapsed iNHL patients | dose not given | – | objective response rate | 74.8%
COc1ccc([C@@H](O)c2cc(-c3ncnc4cc(N5CCOCC5)ccc34)c(F)cc2Cl)nn1 | RECIST version 1.1 | patients, advanced solid tumours | 250 mg twice daily, added: avelumab | reference: patients | objective response rate | 0%
COc1cc2cc(-c3ccc(CC(=O)Nc4cc(C(C)(C)C(F)(F)F)no4)cn3)cnc2cc1OC | RECIST v1.1 | RET-altered advanced solid tumour patients | oral, 40 mg once daily, phase I | – | objective response rate | 33%
COCCOc1cnc2ccn([C@H](C)c3nnc4c(F)cc(-c5cnn(C)c5)cn34)c(=O)c2c1 | – | MET-amplified advanced solid tumour patients | dose not given | – | objective response rate | 29.6%
C=CC(=O)Nc1cc(Nc2ncc(C(=O)OC(C)C)c(-c3cn(C)c4ccccc34)n2)c(OC)cc1N(C)CCN(C)C | – | EGFR NSCLC patients | 120 mg once daily, dose escalation and expansion | – | objective response rate | 19%
Cc1cc(C)c(CNC(=O)c2cc(Cl)c3c(c2C)O[C@@](C)([C@H]2CC[C@H](N(C)C)CC2)O3)c(=O)[nH]1 | – | relapsed/refractory ATLL patients | dose not given, modified ATLL criteria 2009 | – | objective response rate (CR+CRu+PR) | 64%
CN[C@@H](C)C(=O)N[C@H]1CN(S(=O)(=O)c2cccc(S(=O)(=O)N3CC[C@H]4CC[C@@H](C(=O)NC(c5ccccc5)c5ccccc5)N4C(=O)[C@@H](NC(=O)[C@H](C)NC)C3)c2)CC[C@H]2CC[C@@H](C(=O)NC(c3ccccc3)c3ccccc3)N2C1=O | RECIST 1.1 | advanced pancreatic cancer patients | dose not given, efficacy-evaluable, added: AG | – | objective response rate | 20%

Repeated from above:
SMILES | assay | test system | conditions | how to read | quantity | result
Cc1cc(C)c(CNC(=O)c2cc(Cl)c3c(c2C)O[C@@](C)([C@H]2CC[C@H](N(C)C)CC2)O3)c(=O)[nH]1 | – | relapsed/refractory ATLL patients | dose not given, modified ATLL criteria 2009 | – | objective response rate (CR+CRu+PR) | 64%
